Assay results pooled from the literature.
Lines come from different studies, so protocols differ. ± marks the error that the study gave.

`C=CC(=O)Nc1cc(Nc2nccc(-c3cn(C)c4ccccc34)n2)c(OCC(F)(F)F)nc1N(C)CCN(C)C`: “remaining parent compound” 89% (LC-MS; human liver microsomes; 3 µM, 60 min, with: α-naphthoflavone 2 µM; baseline: no inhibitor).
`CCCC(CCC)NC(=O)c1ccc(O)c(OC)c1`: “remaining parent compound” 100% (rat liver microsomes; 1.0 µM, 0 min, pH 7.4).
For `NC12CNCCNCC(NCc3ccc(CNC(=O)CCCC(=O)NCc4ccc(-c5nncnn5)cc4)cc3)(CNCCNC1)CNCCNC2.[64Cu+2]`, “remaining intact compound” read 94.7 ± 0.6% (PBS; 2 h, pH 7.4, 37 °C).
With `CC#N.[Ru+2].c1ccc(-c2cccc(-c3ccccn3)n2)nc1.c1ccc(-c2ccccn2)nc1` the remaining compound was 84% (water; 24 h, 37 °C).
The remaining analyte of `CC(C)(O)[C@H]1Cc2cc3ccc(=O)oc3cc2O1` is reported as 101 ± 6.6% (extracted rat plasma QC samples; 24 h, 4 °C, post-preparative storage).
`C=CC(=O)Nc1cc(Nc2nccc(-c3cn(C)c4ccccc34)n2)c(OCC(F)(F)F)nc1N(C)CCNC` — result for “remaining parent compound”: 97% (LC-MS; human liver microsomes; 3 µM, 60 min, with: α-naphthoflavone 2 µM; baseline: no inhibitor).
`CCCC1OC2CC3C4CCC5=CC(=O)C=CC5(C)C4C(O)CC3(C)C2(C(=O)COC(=O)C(C)N)O1` (centres unmarked) has a remaining conjugate of less than 6% (rat plasma diluted 5.7-fold; 200 µg/mL, 12 h, 37 °C, 2% DMSO).
Under “remaining parent compound”, `CC(C)c1cnn2c(NCc3ccccc3F)cc(N[C@H]3CC[C@@H](N)CC3)nc12` is recorded as greater than 50% (mouse liver S9 fraction; 5 µM, 60 min, pH 7.4, with: NADPH).
For `C[C@@H](O)[C@H](N)C(=O)N1CCC[C@H]1C(=O)NCC(=O)NCC(=O)O`, the remaining peptide was 59% (diketopiperazine formation, ESI-MS; 1-propanol; 5 µM, 90 min, 70 °C, 0.5% acetic acid; baseline: initial signal).
`C=CC(=O)Nc1cc(Nc2nccc(-c3cn(C)c4ccccc34)n2)c(OCC(F)(F)F)nc1NC` — result for “remaining parent compound”: 37% (LC-MS; human liver microsomes; 3 µM, 60 min, with: quercetin 20 µM; baseline: no inhibitor).
With `CNC(=O)c1ccc(N2CCN(Cc3ccc4nc(C)c(=O)[nH]c4c3F)CC2)c([18F])n1` the remaining parent was greater than 95% (cynomolgus monkey plasma; 90 min).
`Cn1cc(-c2ccnc(N)n2)c2ccccc21`: “remaining parent compound” 94% (LC-MS; human liver microsomes; 3 µM, 60 min, with: ticlopidine 24 µM; baseline: no inhibitor).
Under “remaining intact compound”, `O=C([O-])CN1CCN(CC(=O)[O-])CCN(CC(=O)[O-])C(Cc2ccc(NC(=S)NCCc3ccc4c(c3)C3C=CCC3C(c3cc5c(cc3Br)OCO5)N4)cc2)CN(CC(=O)[O-])CC1.[111In+3]` (centres unmarked) is recorded as greater than 90% (mouse plasma; up to 4 days, 37 °C, In(III) complex).
With `CCCC1OC2CC3C4CCC5=CC(=O)C=CC5(C)C4C(O)CC3(C)C2(C(=O)COC(=O)CN(C)C)O1` (centres unmarked) the remaining conjugate was less than 2% (human plasma; 200 µg/mL, 8 h, 37 °C).
With `CC[C@H](C)[C@H](NC(=O)CNC(=O)CNC(=O)c1ccc2c(c1)C(=O)OC21c2ccc(O)cc2Oc2cc(O)ccc21)C(=O)N[C@@H](Cc1ccc(O)cc1)C(=O)N[C@@H](C)C(=O)N(C)CC(=O)N1CCC[C@H]1C(=O)N(C)[C@@H](Cc1ccccc1)C(=O)N[C@@H](CCCCN)C(=O)N[C@@H](CCCCN)C(=O)N[C@@H](CCCCN)C(=O)N[C@@H](C)C(N)=O` the remaining peptide was 43 ± 10% (CE-LIF; Baf/BCR-ABL cytosolic lysate; 1 µM, 60 min, 37 °C).
`C=CC(=O)Nc1cc(Nc2nccc(-c3cn(C)c4ccccc34)n2)c(O)nc1N(C)CCN(C)C` — result for “remaining parent compound”: 147% (LC-MS; human liver microsomes; 3 µM, 60 min, with: α-naphthoflavone 2 µM; baseline: no inhibitor).
`CN(Cc1ccc(F)cc1)Cc1cc(=O)oc2cc(O)ccc12` — result for “remaining intact compound”: greater than 99% (human serum; 0.5 mM, 60 min).
Under “remaining intact complex”, `CC(=O)N([O-])CCCCCNC(=O)CCC(=O)N([O-])CCCCCNC(=O)CCC(=O)N([O-])CCCCCN.[89Zr+4]` is recorded as 78% (mouse plasma; 7 d, 37 °C).
For `CCCC(CCC)NC(=O)c1ccc(OC)c(O)c1`, “remaining parent compound” read 87% (rat liver microsomes; 1.0 µM, 5 min, pH 7.4).
`NC(=O)CNC(=O)[C@@H]1CCCN1C(=O)[C@@H]1CCCN1C(=O)[C@@H]1C[C@@H](O)CN1C(=O)[C@@H]1C[C@@H](O)CN1C(=O)CNC(=O)CNC(=O)[C@@H]1CCCN1C(=O)[C@@H]1C[C@@H](O)CN1C(=O)[C@@H]1C[C@@H](O)CN1C(=O)CNC(=O)[C@@H]1CCCN1C(=O)[C@@H]1CCCN1C(=O)[C@@H]1C[C@@H](O)CN1C(=O)CNC(=O)[C@@H]1C[C@@H](O)CN1C(=O)CNC(=O)[C@@H]1C[C@@H](O)CN1C(=O)[C@@H]1CCCN1C(=O)[C@@H]1C[C@@H](O)CN1C(=O)[C@@H]1CCCN1C(=O)CNC(=O)[C@@H]1CCCN1C(=O)CNC(=O)[C@@H]1C[C@@H](O)CN1C(=O)CNC(=O)[C@@H]1CCCN1C(=O)CNC(=O)CNC(=O)CNC(=O)c1ccc2c(c1)C(=O)OC21c2ccc(O)cc2Oc2cc(O)ccc21` — result for “remaining intact peptide”: 79.1% (RP-HPLC; 25% mouse serum in PBS; 50 µM, 24 h, 37 °C; baseline: zero time point).
`COc1cc(NC(C)=O)c2c(c1O)-c1c(OC)c(OC)cc3c1C(C2)N(C)CC3` (centres unmarked) has a remaining compound of 89.7 ± 3.2% (rat liver homogenate; 0.5 µg/mL, 4 h, room temperature, short-term storage).
`N=C(N)NCCC[C@H](N)C(=O)N1CCC[C@H]1C(=O)NCC(=O)NCC(=O)O` has a remaining peptide of 29% (diketopiperazine formation, ESI-MS; 1-propanol; 5 µM, 90 min, 70 °C, 0.5% acetic acid; baseline: initial signal).
For `C=CC(=O)Nc1cc(Nc2nccc(-c3cn(C)c4ccccc34)n2)c(OCC(F)(F)F)nc1NCCN(C)C`, “remaining parent compound” read 96% (LC-MS; human liver microsomes; 3 µM, 60 min, with: α-naphthoflavone 2 µM; baseline: no inhibitor).

Excerpt of the above:
With `CNC(=O)c1ccc(N2CCN(Cc3ccc4nc(C)c(=O)[nH]c4c3F)CC2)c([18F])n1` the remaining parent was greater than 95% (cynomolgus monkey plasma; 90 min).
`Cn1cc(-c2ccnc(N)n2)c2ccccc21`: “remaining parent compound” 94% (LC-MS; human liver microsomes; 3 µM, 60 min, with: ticlopidine 24 µM; baseline: no inhibitor).
Under “remaining intact compound”, `O=C([O-])CN1CCN(CC(=O)[O-])CCN(CC(=O)[O-])C(Cc2ccc(NC(=S)NCCc3ccc4c(c3)C3C=CCC3C(c3cc5c(cc3Br)OCO5)N4)cc2)CN(CC(=O)[O-])CC1.[111In+3]` (centres unmarked) is recorded as greater than 90% (mouse plasma; up to 4 days, 37 °C, In(III) complex).
